Published values pooled from the literature.
A part holds a random share of what one study measured. Substitutions count along the parent as printed.

Block 1
Target: Histone acetyltransferase KAT6A, winged helix 1, GST fusion (KAT6A, Homo sapiens, UniProt Q92794, residues 1-85)
Technique: protein binding microarray
Form: double-stranded DNA, one strand shown
Sample: in vitro
Concentration: not given
Notes: 8-mer, flanks averaged, mean of 2 arrays, mostly near background
Reference: not given
Direction: higher = stronger binding
Construct (chain): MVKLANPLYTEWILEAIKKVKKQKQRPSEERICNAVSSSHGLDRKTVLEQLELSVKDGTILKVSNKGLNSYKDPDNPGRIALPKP
Strand | E-score
CTTCCGTC | 0.284
CGTTCCGC | 0.372
ATATGGCA | 0.0975
GGGAAATA | -0.107
ATTCTCGC | -0.14
CCACTATC | -0.26
GTCCTTCA | -0.0698
CGTATCTC | 0.106
CCTCGAGG | -0.256
CCTAAAGG | -0.0244
CGTGTAGA | -0.0135
ATCCGGGC | 0.248
AGAATCTG | -0.15
AGATTAAA | -0.0596
GCAAGCCC | 0.0186
ACGTTCCA | -0.0953
TATTAATA | 0.0938
ACAGACAG | -0.0746
GGTTCTAC | 0.017
AAGGAACG | 0.101
TCAATAGA | -0.212
GGGAGACA | -0.0165
AGTGGCTC | -0.0207
GCAGCTCC | -0.0776
AAGTATAG | -0.0334

Block 2
Target: RNA binding protein fox-1 homolog 2, RRM domain, GST-SBP tag (RBFOX2, Homo sapiens, UniProt O43251-10, residues 100-194)
Technique: RNA Bind-n-Seq
Form: RNA
Sample: in vitro
Concentration: 365 nM
Notes: natural RNA segment, single round, ends assumed
Reference: no-protein control
Direction: higher = stronger binding
Shared flanks, not repeated: GGGAGUUCUACAGUCCGACGAUC … UGGAAUUCUCGGGUGCCAA
Target sequence (chain): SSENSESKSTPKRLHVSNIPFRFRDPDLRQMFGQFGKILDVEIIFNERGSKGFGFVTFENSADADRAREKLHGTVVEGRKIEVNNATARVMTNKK
Strand | RBNS enrichment (R)
GAAGCACCUUUUGGGUUUGCGAUACCAAUCAACAUAAGGUGUUGUUGACUCGGGUACAAUAAAACUCUCAACACACACAAAGCCCAUCAGGCAAGAGUACAGUAAGCCUA | 0.499
CUCUUCUCACUUUACCUGUUUUUAUUUCUGCUUGUAUCUAAGUGUGAAGGCAGGGCAGGUACACUGAGUCUGGAAGCUCUGGGUGAGGCUCGGAGCUUGAAGCUCUUUGA | 0.353
AAAAAAAUGAUUUGCUCUUUGUGAACACACAAUUAUGAAUUUCAUGGCGAUGUUAACAAUUCUGCAUUUAGACAAGGUUUUGCAAAAGAUAUUGUGUUAGAAAAAUUUGA | 0.585
UCGUGCCUCUUAGUGCCAAACCCACAGUGAGACCAAAAGUGUCAGGUGUUUUUUUUUUUUUCUUUCUCCUUUGCACUAAGUGCUUUGCAGACACGGCACAGCAAACAUUU | 0.896
GCUCACUUUAUUAUCCCUAUUUUUAAAGUACACAAUUGUUUUACCUGUUCUGAAAUGUUCUUAAAUUUUGUAGGAUUUUUUUCCUCCCCACCUUCAAUGACUUCUAAUUU | 0.356
CCACACUUCCAGGCUAUCUGAACUCCUGAAGCCCUAAAAAUAAAAAGCACAGUUGUAACUACCUGAAAUAUGAAGAUCCAGUUUCAUACAAACAUUUGUAUGACGUGAAU | 0.668
CCAUAGUAUGCUCUGAGUAGCUUUACACUGCCUGGUACUGAUAGUAGUGGCUCGAUUUUUAAGAGCCUUCAAUUGUAGAUGAACAUCUCUGUUAUUUAUCCCUCAUUCAU | 0.51
ACUUUUAAGCUUCUAAAUUGAUCAUUUAAACUAUUUCUUUAAAUAAGAGAGCCAAAUUAGAGGCUCAUACUUUAGCUUGUGAAGAAGAUAAUGAAUUUUUUAAAGGGAAC | 1.48

Block 3
Target: CCNE2, cyclin fold, Cln2 fusion (human)
Technique: yeast growth competition, sequencing
Sample: yeast
Notes: weak parent motif
Reference: not given
Direction: higher = stronger binding
Starting sequence: SAMHD1 docking peptide (human); ASKSRVQLFKDDP; partner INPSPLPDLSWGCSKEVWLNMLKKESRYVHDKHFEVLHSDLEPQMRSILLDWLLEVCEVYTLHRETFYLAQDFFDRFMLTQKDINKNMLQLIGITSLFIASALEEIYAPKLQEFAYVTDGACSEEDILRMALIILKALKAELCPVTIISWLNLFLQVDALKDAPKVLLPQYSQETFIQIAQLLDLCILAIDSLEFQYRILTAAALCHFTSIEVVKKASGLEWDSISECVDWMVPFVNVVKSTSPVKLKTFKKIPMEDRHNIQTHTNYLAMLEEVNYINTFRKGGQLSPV
Substitution | normalised enrichment score
ASKSRVQLFQDDP [K10Q] | 0.108
ASKSRVQHFKDDP [L8H] | -0.395
AIKSRVQLFKDDP [S2I] | 0.646
ASKSRVQLVKDDP [F9V] | 0.0982
ANKSRVQLFKDDP [S2N] | 0.174
ASKSRVQRFKDDP [L8R] | -0.35
ASKSRVQLFHDDP [K10H] | 0.188
ASKSRVGLFKDDP [Q7G] | 0.152
ASKSHVQLFKDDP [R5H] | 0.0687
ASKSRVALFKDDP [Q7A] | -0.33
AVKSRVQLFKDDP [S2V] | 0.353
ASKERVQLFKDDP [S4E] | -0.195
ASKSRVLLFKDDP [Q7L] | 0.155
ASKSRVQLFKDNP [D12N] | 0.472
ASKSTVQLFKDDP [R5T] | -0.106
ASKSRVQLFKRDP [D11R] | 0.561
ASKSRWQLFKDDP [V6W] | 0.0742
ASKSRVQLFKMDP [D11M] | 0.368
ACKSRVQLFKDDP [S2C] | -0.131
ASKSRVQLFKHDP [D11H] | -0.0671
ASKSRVQDFKDDP [L8D] | -0.000719
ASKSRVQLWKDDP [F9W] | 0.329

Block 4
Target: ABI1, truncated, D143A, DHFR fusion (Arabidopsis thaliana)
Technique: DHFR PCA, deep sequencing
Sample: yeast
Notes: methotrexate growth selection, single substitutions
Added: (+)-ABA 0.11 µM
Reference: wild-type fitted maximum
Direction: higher = stronger binding
Starting sequence: PYL1, truncated, DHFR fusion (Arabidopsis thaliana); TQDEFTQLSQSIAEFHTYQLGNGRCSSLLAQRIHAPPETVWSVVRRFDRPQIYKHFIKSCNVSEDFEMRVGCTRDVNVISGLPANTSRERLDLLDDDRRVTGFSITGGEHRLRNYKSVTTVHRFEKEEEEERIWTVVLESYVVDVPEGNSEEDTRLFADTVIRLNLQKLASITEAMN
Substitution | relative binding score [%]
H34T | -0.672
K54F | 0.758
I105P | -9.42
E89I | -5.34
W134V | 23.6
R45I | -4.06
D92W | 2.08
R132N | 51.2
R88E | 14.9
G81E | 10.3
Y18K | -1.82
D92T | -4.65
G81V | 3.12
S27D | 4.89

Some of these lines once more (block 3):
Substitution | normalised enrichment score
ASKSRVQLVKDDP [F9V] | 0.0982
ANKSRVQLFKDDP [S2N] | 0.174
ASKSRVQRFKDDP [L8R] | -0.35
ASKSRVQLFHDDP [K10H] | 0.188
ASKSRVGLFKDDP [Q7G] | 0.152
ASKSHVQLFKDDP [R5H] | 0.0687
ASKSRVALFKDDP [Q7A] | -0.33
AVKSRVQLFKDDP [S2V] | 0.353
ASKERVQLFKDDP [S4E] | -0.195
ASKSRVLLFKDDP [Q7L] | 0.155
ASKSRVQLFKDNP [D12N] | 0.472
